Assay results gathered from unrelated publications.
Parts stem from different laboratories: compare values within a part only.

Block 1 — technique: RNA Bind-n-Seq; molecule type: RNA; matrix: in vitro; tested at: 365 nM; relative to: no-protein control; direction: higher = stronger binding; endpoint: RBNS enrichment (R)
Target: RNA binding protein fox-1 homolog 2, RRM domain, GST-SBP tag (RBFOX2, Homo sapiens, UniProt O43251-10, residues 100-194)
Setting: natural RNA segment, single round, ends assumed
Constant ends, left off below: GGGAGUUCUACAGUCCGACGAUC … UGGAAUUCUCGGGUGCCAA
Construct (chain): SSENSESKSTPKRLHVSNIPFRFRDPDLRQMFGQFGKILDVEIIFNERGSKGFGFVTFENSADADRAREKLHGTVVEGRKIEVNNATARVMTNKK
Sequence = CUUGAUUUCUAGCCCCAUUCUGAGGGGCACCAGCUGUUACCCAGUUUCUAGUUCCUGGCUCUUGAGGGGCUUGGUCCUGCCUGCUCUAUGGAAGGGGCCAAGAGGAGCUG; result = 0.387
Sequence = UUUUGCUGGUAAUUUCAGUAACUGUUUUCAGCAAGAAUAUUACAUGAGCUCUAAAGUUAUUAAGCAGUUUUAUGUUCGUUUUGUGUUUAGGGAGCUUUUUAAAACACUUC; result = 0.679
Sequence = CUAUGGCAGUCCUGACUUGCUGAUGACCAUAUGCUGGUGACCUACAAAUCGGGAUCCUGCCAUAUGGGGUCGCCACUGGACUUUCUGCACUGGAUCUCAAGAGCGUUGAG; result = 0.235
Sequence = UAAAAACAAAACAACAAACUUGAUUCCUGGGCUGUGGCAAGUUUUCUUUGUCCUCAAAACUGGCAGAUACUGGAGCUGGGCAGCCAUUUUUCCUUUUAGUGUCUCUUGAA; result = 0.649
Sequence = UGUGCUGGGGCCCUGCAAUUGGAAUGUUGGCCAGAUUUCUGCAAUAAACACUUGUGGUUUGCGGCCAUCUCCUUGGUUAUGAAUGGCUGUUUCGCUGAGCGCCAGGCAUU; result = 0.339
Sequence = CAUGAAAUGAUAGAUUUGACCUCCUCCCUGUUAUUUUCAAGUAGCUGGGAUUUUAAACUAGAUGACCUCAUUAACCGAUGCUUUACCAAACAGCAAACCAAGAGAUUGCU; result = 0.602
Sequence = UAUGAAGCAAAGAGGAUCCUGGGCUAUUUAAAGCUCUGGUAACCGAGAAGAACUUGCCCCUGUUCUUACCUAGCUUCUUUGAGUCAGUCAGUGUGCAGAGCUCCUUUCUG; result = 0.312
Sequence = GAGAGGUGGGACUGCCAUCUGGGCCUCGGUGGCUUGUUUCCAACCAAAUUAUCUGGGCUUCAGAAGCCAUCCCUUUGCUAUGCUUGACACCAAACUCAGUCACUCCACCU; result = 0.491
Sequence = GCGGUUUUAUACUUUUUUUAUGAGUUAUGAUAGCAGCAAUUACGUUGUUUGUAUUUUGCUUAACUAAAACAAAAAUGCUUUUAUCUUGCUAUAGAAUAAACACAUUUCAG; result = 0.519
Sequence = CUAUUCUAAGUAGAAUGUUCAAUGUAACUGACUAAAAUUGCAUGUUAAAGAUAUUUAGGUUUUUUUGUUUUCUUUAUUUUUAUUUGUUUUCAGUUUCCUGUAUAUUUGCU; result = 60.3
Sequence = GUGUGCACUUCCUCGGAGAGCCUUGGGCUGCCACGUCCACCCCGGGCUCUGCCCGUCCUGUUCUGCCCAUGGCCCAGCCCGGCCGCUCCUGCUGACCCCUCCUGGACGGG; result = 0.339
Sequence = UUCUAAAACAAAACACCAGCCCCAUAGACCACUGAGCACCUAGGGAGGUUUCUCUGCCUAGCCAUAGCAUCAUUAAUAGAUGUCCAAAAAUGAGCAAUUCUGGGAAUCAC; result = 0.663

Block 2 — technique: competition protein-binding microarray; molecule type: double-stranded DNA, one strand shown; matrix: in vitro; tested at: 2 µM; with: Pho4 competitor, 0.05 µM; direction: higher = stronger binding; endpoint: fluorescence intensity; constant ends, left off below: … GTCTTGATTCGCTTGACGCTGCTG
Target: Centromere-binding protein 1, full length, His-tagged (CBF1, Saccharomyces cerevisiae, UniProt P17106, residues 1-351)
Sequence of UniProt P17106 (whole entry, looked up): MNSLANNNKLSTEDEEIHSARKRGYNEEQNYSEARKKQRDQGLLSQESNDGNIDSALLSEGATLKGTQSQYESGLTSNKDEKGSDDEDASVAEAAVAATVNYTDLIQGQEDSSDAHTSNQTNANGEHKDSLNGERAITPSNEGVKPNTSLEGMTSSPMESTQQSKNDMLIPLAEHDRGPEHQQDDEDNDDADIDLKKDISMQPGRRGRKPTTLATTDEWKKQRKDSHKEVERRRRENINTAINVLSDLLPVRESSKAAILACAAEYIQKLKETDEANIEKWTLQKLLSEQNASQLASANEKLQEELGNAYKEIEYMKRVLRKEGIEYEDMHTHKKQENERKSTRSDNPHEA
Setting: whole 60-bp probe, lowest competitor level
Sequence = GGAAGAAATGTCCATCACGTGATGGAGAACCAATGA; result = 10800 a.u.
Sequence = AAATTACTAAGTTGAGGCGTGGGTGACGCCGTATGA; result = 70.2 a.u.
Sequence = CATACCCAACCTTGTCACCGGACTTAAGATATTTGT; result = 91.2 a.u.
Sequence = AATTTGAATGGTAAGCTCGTGACGGAATTGTGGCTG; result = 364 a.u.
Sequence = GTCTTGTCTCATTGGTCTGTGGGTGTCCCCACTTCA; result = 71.7 a.u.
Sequence = GGGTCATTTCTCTTTACTGAATATTATGAACGAGTT; result = 86.4 a.u.
Sequence = ACTCTAAGGTTATAGCATGTGCTATTGATAACCCAG; result = 163 a.u.
Sequence = TTACATCATTGGCAACACATGCCTGGATCGCTTTAG; result = 89.1 a.u.
Sequence = CGCGCTTGTTATACCCACGTTATTATTTGCCCCCAA; result = 125 a.u.
Sequence = CGAAATGGCACTGACCATGCGGAGCCAGCGCCGGAA; result = 62 a.u.
Sequence = CTTCTGTAAATTTTTCACGTGAGCTGAGGCGCCCCG; result = 997 a.u.
Sequence = AAATTACTAAGTTGTGCGGTGGGTGACGCCGTATGA; result = 64.8 a.u.
Sequence = GTCTTGTCTCATTGGACCGTGGGTGTCCCCACTTCA; result = 67.2 a.u.
Sequence = AAAGCGGTAATTTTTCACGTGTAATCAAATATCTAT; result = 1400 a.u.
Sequence = CTAACGAAGGTTTGCGTAGTGGGTGACAAGCCAAGT; result = 75.9 a.u.
Sequence = TGCGCAACAACTTGGACAGTGGGTGTATGTCTAGAA; result = 60.2 a.u.
Sequence = CGTCCTAGTGATTGCCCCGTGGGTGCCATGAGGAAG; result = 115 a.u.
Sequence = TGCGCAACAACTTGTCACGTGTTTTTATGTCTAGAA; result = 6330 a.u.
Sequence = CTAATAGCGTCGTTGGTCGTGACGGCGTTTACTGCA; result = 69.9 a.u.
Sequence = ATGATGGGAAACCATCACGTACGGTTTGGGAAAGGC; result = 79.1 a.u.
Sequence = ATATGCGATTTCCATCACGATATGTCAATTATAGGC; result = 182 a.u.

Block 3 — technique: protein-binding microarray; molecule type: double-stranded DNA, one strand shown; matrix: in vitro; tested at: 250 nM; setting: 60-bp whole probe; with: salmon DNA 0.4 mg/ml; relative to: random background probes; direction: higher = stronger binding; endpoint: log fluorescence; constant ends, left off below: GCCTAGCAC … GTCTTGATTCGCTTGACGCTGCTG
Target: Interferon regulatory factor 7, full length, phosphomimetic (IRF7, Homo sapiens, UniProt Q92985, residues 1-503, S101K/S471D/S472D/S475D/S476D/S477D/S483D/S484D/S487D)
Target sequence (chain): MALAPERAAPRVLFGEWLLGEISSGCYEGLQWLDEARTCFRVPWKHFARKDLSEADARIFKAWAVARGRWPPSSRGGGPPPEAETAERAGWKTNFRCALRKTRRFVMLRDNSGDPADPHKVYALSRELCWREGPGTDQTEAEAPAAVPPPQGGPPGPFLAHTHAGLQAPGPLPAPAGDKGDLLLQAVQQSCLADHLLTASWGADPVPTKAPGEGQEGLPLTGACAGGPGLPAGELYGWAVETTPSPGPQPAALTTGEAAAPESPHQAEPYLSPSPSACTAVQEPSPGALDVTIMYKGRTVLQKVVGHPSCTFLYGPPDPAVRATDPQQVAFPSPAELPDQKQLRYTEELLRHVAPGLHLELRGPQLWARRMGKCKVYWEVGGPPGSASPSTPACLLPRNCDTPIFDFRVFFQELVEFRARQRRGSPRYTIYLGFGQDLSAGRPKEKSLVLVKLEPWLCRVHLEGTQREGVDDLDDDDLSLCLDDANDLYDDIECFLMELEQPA
Sequence = GACGATCTCAGTATCGATACGTGCTAG; result = 0.556 z-score
Sequence = TTAGAACTGGGGACTGGAATAGTGCTA; result = -0.389 z-score
Sequence = ACCTAATTCACTATTACCAAGTGCTAG; result = 0.789 z-score
Sequence = TTGGATATCAGTTTCGATTAGTGCTAG; result = 8.19 z-score
Sequence = TTAGGTATCCTTATCTTTTAGTGCTAG; result = 0.472 z-score
Sequence = CCCCATCTTGTTCCCAGAGAGTGCTAG; result = 0.808 z-score
Sequence = CTCCCATTATATTTTAATCAGTGCTAG; result = 0.89 z-score
Sequence = TCATTTGTCACTCTCAGACTGTGCTAG; result = 1.12 z-score
Sequence = GACGGTTTCCGTCTCCTGACGTGCTAG; result = 2.36 z-score
Sequence = TTAGGTATCCTTATCCATTAGTGCTAG; result = 0.423 z-score
Sequence = GCAGGGTATAGGCATTCCCTGTGCTAG; result = -0.796 z-score
Sequence = ATTGTTTCCTTCCTCTTTTAGTGCTAG; result = 2.94 z-score
Sequence = TATTTTATATGCTATGTACTGGTGCTA; result = 0.858 z-score
Sequence = TTAGAACTAGGGACTGGATTAGTGCTA; result = 0.12 z-score
Sequence = TGAGGACTGGGTCTCGGTTAGTGCTAG; result = 0.576 z-score
Sequence = TTACGTTTCCTTCTCCTTTAGTGCTAG; result = 2.25 z-score
Sequence = TTAGGTATCGGGTATCGGTTGGTGCTA; result = 1.44 z-score
Sequence = GGTGCTCTGCAGCTCAGGCAGTGCTAG; result = -0.684 z-score
Sequence = TTAGACCTGGGGACTGGATTAGTGCTA; result = -0.309 z-score
Sequence = CATTGCCTATTTTTCACCTGGTGCTAG; result = 0.894 z-score
Sequence = AACGGTCTCGGTTTCGGGACGTGCTAG; result = 7.98 z-score
Sequence = GACGGTATCGACTTTCGGGTCGTGCTA; result = 2.15 z-score
Sequence = TTAGGTTCCCTCTTCCTTTAGTGCTAG; result = 1.28 z-score
Sequence = GACGGTTTCCTAATGCTGACGTGCTAG; result = 2.75 z-score
Sequence = GACTGACTGCTTCTCCTGACGTGCTAG; result = -0.243 z-score

Block 4 — technique: protein binding microarray; molecule type: double-stranded DNA, one strand shown; matrix: in vitro; tested at: not given; relative to: not given; direction: higher = stronger binding; endpoint: E-score
Target: Histone acetyltransferase KAT6A, winged helix 2, GST fusion (KAT6A, Homo sapiens, UniProt Q92794, residues 85-181)
Setting: 8-mer, flanks averaged, mean of 2 arrays, mostly near background
Target sequence (chain): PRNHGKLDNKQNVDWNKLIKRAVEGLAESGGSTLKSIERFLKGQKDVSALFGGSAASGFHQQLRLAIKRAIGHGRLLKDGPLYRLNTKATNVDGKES
Sequence = AGACATCA; result = -0.0522
Sequence = ACAGTCCC; result = -0.223
Sequence = AGTGCGCC; result = 0.0557
Sequence = AGTCCCGC; result = 0.0574
Sequence = CTCGTTTA; result = 0.059
Sequence = CCCACGCC; result = 0.0194
Sequence = CGACACAG; result = -0.0305
Sequence = CCTCGGCC; result = 0.234
Sequence = CATTGACA; result = -0.0789
Sequence = ACCCAGTA; result = -0.169
Sequence = GATATCGC; result = 0.105
Sequence = AACTAGGG; result = -0.0566
Sequence = GCGGATCA; result = 0.109
Sequence = GAGAGACA; result = -0.0729
Sequence = CCGCAGTC; result = 0.152
Sequence = CTGTAAAA; result = -0.0245
Sequence = CGCGATTC; result = 0.248

Some of these lines once more (block 1):
Sequence = UUCUAAAACAAAACACCAGCCCCAUAGACCACUGAGCACCUAGGGAGGUUUCUCUGCCUAGCCAUAGCAUCAUUAAUAGAUGUCCAAAAAUGAGCAAUUCUGGGAAUCAC; result = 0.663
Sequence = CAUGAAAUGAUAGAUUUGACCUCCUCCCUGUUAUUUUCAAGUAGCUGGGAUUUUAAACUAGAUGACCUCAUUAACCGAUGCUUUACCAAACAGCAAACCAAGAGAUUGCU; result = 0.602
Sequence = CUAUUCUAAGUAGAAUGUUCAAUGUAACUGACUAAAAUUGCAUGUUAAAGAUAUUUAGGUUUUUUUGUUUUCUUUAUUUUUAUUUGUUUUCAGUUUCCUGUAUAUUUGCU; result = 60.3
Sequence = GAGAGGUGGGACUGCCAUCUGGGCCUCGGUGGCUUGUUUCCAACCAAAUUAUCUGGGCUUCAGAAGCCAUCCCUUUGCUAUGCUUGACACCAAACUCAGUCACUCCACCU; result = 0.491
Sequence = CUUGAUUUCUAGCCCCAUUCUGAGGGGCACCAGCUGUUACCCAGUUUCUAGUUCCUGGCUCUUGAGGGGCUUGGUCCUGCCUGCUCUAUGGAAGGGGCCAAGAGGAGCUG; result = 0.387
Sequence = UUUUGCUGGUAAUUUCAGUAACUGUUUUCAGCAAGAAUAUUACAUGAGCUCUAAAGUUAUUAAGCAGUUUUAUGUUCGUUUUGUGUUUAGGGAGCUUUUUAAAACACUUC; result = 0.679
Sequence = UGUGCUGGGGCCCUGCAAUUGGAAUGUUGGCCAGAUUUCUGCAAUAAACACUUGUGGUUUGCGGCCAUCUCCUUGGUUAUGAAUGGCUGUUUCGCUGAGCGCCAGGCAUU; result = 0.339
Sequence = UAUGAAGCAAAGAGGAUCCUGGGCUAUUUAAAGCUCUGGUAACCGAGAAGAACUUGCCCCUGUUCUUACCUAGCUUCUUUGAGUCAGUCAGUGUGCAGAGCUCCUUUCUG; result = 0.312
Sequence = GUGUGCACUUCCUCGGAGAGCCUUGGGCUGCCACGUCCACCCCGGGCUCUGCCCGUCCUGUUCUGCCCAUGGCCCAGCCCGGCCGCUCCUGCUGACCCCUCCUGGACGGG; result = 0.339
Sequence = CUAUGGCAGUCCUGACUUGCUGAUGACCAUAUGCUGGUGACCUACAAAUCGGGAUCCUGCCAUAUGGGGUCGCCACUGGACUUUCUGCACUGGAUCUCAAGAGCGUUGAG; result = 0.235
